Published values pooled from the literature.
A part holds a random share of what one study measured.

Study 1
Target: Histone acetyltransferase KAT6A, winged helix 1, GST fusion (KAT6A, Homo sapiens, UniProt Q92794, residues 1-85)
Method: protein binding microarray
Form: double-stranded DNA, one strand shown
Matrix: in vitro
Tested at: not given
Notes: 8-mer, flanks averaged, mean of 2 arrays, mostly near background
Baseline: not given
Reading: higher = stronger binding
Endpoint: E-score
Construct (chain): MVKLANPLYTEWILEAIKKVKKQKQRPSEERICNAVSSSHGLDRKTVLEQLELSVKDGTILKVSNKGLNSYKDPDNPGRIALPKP
Sequence = CGTTTTCA; value = 0.056
Sequence = TAACGAGA; value = -0.0932
Sequence = AATTGCAT; value = -0.152
Sequence = ATAAAGTG; value = -0.171
Sequence = CGTGGGGA; value = -0.0877
Sequence = CCGGAACG; value = 0.275
Sequence = GTAGCGGA; value = 0.184
Sequence = GAAATAGA; value = -0.242
Sequence = CGTGGAGC; value = 0.172
Sequence = CAAAATGC; value = -0.0809
Sequence = AGGGCCGC; value = 0.373
Sequence = GCGACGCC; value = 0.376
Sequence = ACTACTCT; value = -0.0298
Sequence = AACATTAG; value = -0.0903
Sequence = GACTAGTC; value = -0.237
Sequence = CGTGCATC; value = -0.0704
Sequence = AATCTACC; value = 0.0246
Sequence = ATAATCTA; value = 0.00686
Sequence = ACTGACGA; value = -0.155
Sequence = CGCGGCAA; value = 0.432
Sequence = CTCCCAAA; value = -0.231
Sequence = ACATAGTG; value = -0.0974
Sequence = AGCTTTAC; value = -0.0137
Sequence = AAATCGGC; value = 0.276
Sequence = GCCAGGCC; value = -0.00114

Study 2
Target: Prothrombin, mature alpha-thrombin (F2, Homo sapiens, UniProt P00734)
Method: aptamer microarray, sandwich
Form: DNA with 2'F-ANA
Matrix: in vitro
Tested at: 200 nM
Notes: whole 15-mer aptamer, many near background
With: Cy3 exosite-II aptamer, 400 nM
Reading: higher = stronger binding
Endpoint: mean fluorescence intensity
Sequence: GGTTGGTGTGGTTGG
Modification = 2'F-ANA at 5 12 14; value = 46.1 a.u.
Modification = 2'F-ANA at 1 3 5 6 7 8 11 12 13 14 15; value = 52 a.u.
Modification = 2'F-ANA at 1 2 4 5 6 9 10 11 12 13 14; value = 52.8 a.u.
Modification = 2'F-ANA at 1 6 7 10 11 13 15; value = 51.2 a.u.
Modification = 2'F-ANA at 1 2 3 4 8 10 12; value = 77.7 a.u.
Modification = 2'F-ANA at 2 3 5 8 9 12 13 14 15; value = 115 a.u.
Modification = 2'F-ANA at 3 4 9 10 14 15; value = 189 a.u.
Modification = 2'F-ANA at 2 5 8 10 13 15; value = 52.9 a.u.
Modification = 2'F-ANA at 1 2 3 4 5 6 7 14 15; value = 48.6 a.u.
Modification = 2'F-ANA at 2 4 7 10 14 15; value = 63.4 a.u.
Modification = 2'F-ANA at 3 4 5 11 13; value = 64.2 a.u.
Modification = 2'F-ANA at 3 6 10 11 12 13 14 15; value = 360 a.u.
Modification = 2'F-ANA at 2 5 7 9 11 13 14; value = 43.9 a.u.
Modification = 2'F-ANA at 1 4 6 7 8 10 14; value = 44.9 a.u.
Modification = 2'F-ANA at 1 2 5 6 8 10 12; value = 49.9 a.u.
Modification = 2'F-ANA at 1 6 7 8 9 12 14 15; value = 76.9 a.u.
Modification = 2'F-ANA at 2 6 9 12 14; value = 161 a.u.
Modification = 2'F-ANA at 2 9 11 13 14 15; value = 109 a.u.
Modification = 2'F-ANA at 1 8 9 12 14; value = 68.5 a.u.
Modification = 2'F-ANA at 3 7 10 11 12 13 15; value = 590 a.u.
Modification = 2'F-ANA at 2 3 4 7 8 10 11 15; value = 234 a.u.

Study 3
Target: RNA binding protein fox-1 homolog 2, RRM domain, GST-SBP tag (RBFOX2, Homo sapiens, UniProt O43251-10, residues 100-194)
Method: RNA Bind-n-Seq
Form: RNA
Matrix: in vitro
Tested at: 365 nM
Notes: natural RNA segment, single round, ends assumed
Baseline: no-protein control
Reading: higher = stronger binding
Endpoint: RBNS enrichment (R)
All sequences stand within: GGGAGUUCUACAGUCCGACGAUC … UGGAAUUCUCGGGUGCCAA
Residues (chain): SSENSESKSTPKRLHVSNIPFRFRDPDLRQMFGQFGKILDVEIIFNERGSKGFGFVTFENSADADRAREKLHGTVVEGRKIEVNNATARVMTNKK
Sequence = AUCGACUAUCGGUUCUGUGCCUGUGCUCUGUUGUGUUGGAGGGAAGGACUGGUAGUUCUGAUUUUUACUCUGUGAACACUUUAUUUAAGGACAUUCUUUUUUAUUGGCGG; value = 4.1
Sequence = AGAACAUGUUAGCAGUCUGUCAGACCUGAGCUCUGGCAUGUGCGACAGCACGUUACUAAAGCAGUUACAUGCAUGUUGCGCUACCCUCAUCUGGUAUAGAGACCUGCAUU; value = 0.513
Sequence = GACCCCACGCUCUCCCAACGCCCAGACUAUGUGGAGCUGCCAAGCCCCUGUCUGGGCACCUCUGCCCUGCCUGUCUGCUGCCCGGAUCCUCCUCACUUAGCACCUAGGGG; value = 1.66
Sequence = UUUUUACUACUACAGAGAGUCUGUAAAUAAGUGCUUUAAAAAAAUAACAAACCAAUAAGAUAUUUGUCUCCUAUAUAAACAUUCUGUGUAUUUAGCACUUGAAAAUCAAC; value = 0.934
Sequence = GUUUGCCUCAUUGCUUUGCUUAUUUAGCAAAUGCAUACAACGAGGAAAGGAGGUGGCUAGUGGUAUCAGUUCUCUGAUCCACUUCCAUUUAAGCUCCCCAGGAAAUCCCA; value = 0.219
Sequence = UAGUGUUGGUGCAGCACCAGCCUGGGCUCUGGGCUCCUCACCGAGACUCAGAGGCCACACUGAUUUGUGCUGCAUCCAGACCCCCGUCUCCCUCCCCACCACCAUUCCUU; value = 0.17
Sequence = CAGAGGAAAGCGUGCUCGAAGGAUGCCAUGGUCAGGGCAGGGCCUCCAGAGCAGGUGUUGUGCCUGGAGCUGCUCUCCUGGCCUCCUUGGAUUUAUCGCAAAAACUGAAG; value = 0.54
Sequence = AACACUGGGAAGUGAUUCUUCCCUCAGGCCCCUCUGCCUACCAACACCUGGGCUCCUCACUGGGGGAAACAAAAGCCUAUAAACCCCAGCAACAAAACCUAGUCCUCUUA; value = 0.442
Sequence = AAGAGAGUUGAGUGAAUCUGUUUACAUUUAGGAUAAUGUUUUUUUCUUCAAAAGACGCAAUUGCAAUAGUAUUUUUUAGAUUUUAUCCAAGAAGUUUUUUGGGCAAAAAU; value = 0.605
Sequence = CUUGAAUUUUAGGGACUUUAAUUCACCCCUCCUUCAAUACAACUUUCCCCCUUCUUGUUUGCACAUGCCAAGAUAACUGCUUUUAUGCAGGCUGUACCCCCUUGAAAAAU; value = 1.83
Sequence = UUACUAACUUGGUGUCGCUACCCAGGACACAUUGUCUACAGUAAAUGGAAUGUGAGCCACAUCUGUACUCUAAACUUUCCUAAUAACUGUGUUAAACAAGAACAACAAAA; value = 0.328
Sequence = AGGCUAGGGAGGGUUGGUUACAGGGUGGCAGGGUCCCAGGUCGGAUGACAAGCUGUCUCCUGCGGAAGUGUAGCUUGUGGGUAUAGAGUUCUGUCUGCACCUGCCCUCUA; value = 0.948

Study 4
Target: Fragile X messenger ribonucleoprotein 1, C-terminal low-complexity region (Fmr1, Mus musculus, UniProt P35922)
Method: RNA Bind-n-Seq
Form: RNA
Matrix: in vitro
Tested at: 200 nM
Notes: whole 134-nt RNA, ends assumed
With: 150 mM LiCl
Baseline: input library
Reading: higher = stronger binding
Endpoint: log2 enrichment
Library: 7-deaza-guanosine replaces G
All sequences stand within: GGGAGUUCUACAGUCCGACGAUC … UGGAAUUCUCGGGUGUCAAGG
Sequence = CACAGACAACACGCACCCACACAGACACAGAGGGAAGGGGUUGGGAUGGGGACAGGGUGCACAGCAGGGCGGGGUAGGAAAACAGCCCCU; value = 1.32
Sequence = AGUCCUGUGCUACACAUCGUAUGUACCGAAUCGGGAAAGGGAAAAAAAGGGUUUGGGAAAGUAUUAUGUUACGCCGUUCGGAUCUGCACU; value = -2.81
Sequence = UCAAGUCCUGUGCUACACAUCGUAUGUACCGAAUCGGGGCCCGGCCCGGCCCGGAAAGUAUUAUGUUACGCCGUUCGGAUCUGCACUUCC; value = -0.761
Sequence = UUCACUCUUUGAAGGAACGUGGUACUUAGUUAGGGUGGAUGAAAAGCACAGAAGAACUUACGCUCGGCGUCCCACUCCAAAUGAUGACAC; value = 0.623
Sequence = UCAAGUCCUGUGCUACACAUCGUAUGUACCGAAUCGGCCCGGGGCCCGGCCCGGGAAAGUAUUAUGUUACGCCGUUCGGAUCUGCACUUC; value = -0.687
Sequence = CACAGACAACACGCACCCACACAGACACAGAGGGAAGGGGUUGGGAUGGGGACAGGGUAAACAGCAGGGCGGGGUAGGACCCCAGCCCCU; value = 0.0836
Sequence = AGUCCUGUGCUACACAUCGUAUGUACCGAAUCGGGGAAAAAAAGGGGUGGGGUGGGGAAAGUAUUAUGUUACGCCGUUCGGAUCUGCACU; value = -0.378
Sequence = UGGGAGGUGGAUUUUGUUUAUUUUUUUAGCUCAUUUCCUGGGGUGGGAAUUUUUUUUUAAUAUGUGUCAUGAAUAAAGUUGUUUUUGAAA; value = -0.0781
Sequence = CAAGUCCUGUGCUACACAUCGUAUGUACCGAAUCGGGUGGGUUUUUGGGAAAGGGAAAGUAUUAUGUUACGCCGUUCGGAUCUGCACUUC; value = -1.04
Sequence = CACAGACAACACGCACCCUCACAGACACAGAGGGAAGGGGUUGGGAUGGGGACAGGGUGCACAGCAGGGCGGGGUAGGACCCCAGCCCCU; value = -1.33
Sequence = UGGGAGGUGGAUUUUGUUUAUUUUUUUAGCUCAUUUCCAGGGGUGGGAAUGUUUUUUUAAUAUGUGUCAUGAAUAAAGUUGUUUUUGAAA; value = -0.666

Some of these lines once more (study 2):
Modification = 2'F-ANA at 1 2 4 5 6 9 10 11 12 13 14; value = 52.8 a.u.
Modification = 2'F-ANA at 2 9 11 13 14 15; value = 109 a.u.
Modification = 2'F-ANA at 1 6 7 10 11 13 15; value = 51.2 a.u.
Modification = 2'F-ANA at 5 12 14; value = 46.1 a.u.
Modification = 2'F-ANA at 2 4 7 10 14 15; value = 63.4 a.u.
Modification = 2'F-ANA at 1 8 9 12 14; value = 68.5 a.u.
Modification = 2'F-ANA at 1 2 3 4 8 10 12; value = 77.7 a.u.
